{"data": "Published values gathered from unrelated publications", "note": "Every numbered part comes from another study and shows a few of its results, in no order. Changes are numbered by the printed parent chain."}
{"data": "Block 1", "target": "CCND2, cyclin fold, Cln2 fusion (human)", "technique": "yeast growth competition, sequencing", "matrix": "yeast", "notes": "weak parent motif", "relative to": "not given", "direction": "higher = stronger binding", "starting sequence": "E2F7 docking peptide (human); SSAQRRLEIPSGG"}
{"Variant": "SSAQRRAEIPSGG [L7A]", "normalised enrichment score": 0.000733}
{"Variant": "SSAQRRLEIPAGG [S11A]", "normalised enrichment score": 0.219}
{"Variant": "SSAQRRLEFPSGG [I9F]", "normalised enrichment score": 1.12}
{"Variant": "SSAARRLEIPSGG [Q4A]", "normalised enrichment score": 0.0953}
{"Variant": "SSAQRRLEIPSGA [G13A]", "normalised enrichment score": 0.196}
{"Variant": "SSAQKRLELPSGG [R5K I9L]", "normalised enrichment score": 0.151}
{"Variant": "SSAQRRLEIPSAG [G12A]", "normalised enrichment score": -0.028}
{"Variant": "SSAQRALEIPSGG [R6A]", "normalised enrichment score": -0.422}
{"data": "Block 2", "target": "Ras GTPase-activating protein-binding protein 1, RRM domain (G3BP1, Homo sapiens, UniProt Q13283)", "technique": "RNA Bind-n-Seq", "form": "RNA", "matrix": "in vitro", "concentration": "1 µM", "notes": "whole 134-nt RNA, ends assumed", "added": "150 mM KCl", "relative to": "input library", "direction": "higher = stronger binding", "constant ends, left off below": "GGGAGUUCUACAGUCCGACGAUC … UGGAAUUCUCGGGUGUCAAGG", "chain of UniProt Q13283 (whole entry, looked up)": "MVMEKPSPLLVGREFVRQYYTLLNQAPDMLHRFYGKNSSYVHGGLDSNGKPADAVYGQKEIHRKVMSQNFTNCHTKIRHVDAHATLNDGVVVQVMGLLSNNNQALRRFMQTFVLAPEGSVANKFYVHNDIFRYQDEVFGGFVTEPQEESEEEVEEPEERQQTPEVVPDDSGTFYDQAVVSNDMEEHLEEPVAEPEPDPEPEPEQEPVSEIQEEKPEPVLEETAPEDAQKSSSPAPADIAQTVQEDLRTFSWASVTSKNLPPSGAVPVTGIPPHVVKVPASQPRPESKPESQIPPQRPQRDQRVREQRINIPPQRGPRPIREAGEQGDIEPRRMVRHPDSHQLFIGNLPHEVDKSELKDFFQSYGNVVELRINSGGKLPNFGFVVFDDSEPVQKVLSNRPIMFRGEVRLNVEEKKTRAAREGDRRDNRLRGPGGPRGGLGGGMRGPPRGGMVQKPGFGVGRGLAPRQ"}
{"Oligonucleotide": "ACCUUGCAGGUGGGCAUCUUUGGGAAGUGGGGCAAGGGGGGGAUAGGGAGGGGGGUAACACUUUGGGAACAGGUGGUCCCAGGUCGUUUC", "log2 enrichment": -0.537}
{"Oligonucleotide": "CCUCAAGUCCUGUGCUACACAUCGUAUGUACCGAAUCGGAGGGGAGGGAGGGGAAAGUAUUAUGUUACGCCGUUCGGAUCUGCACUUCCA", "log2 enrichment": 0.443}
{"Oligonucleotide": "UGGGAGGUGGAUUUUGUUUAUUUUUUUAGCUCAUUCCCAGGGGUGGGAAUUUUUUUUUAAUAUGUGUCAUGAAUAAAGUUGUUUUUGAAA", "log2 enrichment": 1.99}
{"Oligonucleotide": "CUGUGCUACACAUCGUAUGUACCGAAUCGGGCCCCCCCGGGCCCCCCCGGCCCCCCCGGGGAAAGUAUUAUGUUACGCCGUUCGGAUCUG", "log2 enrichment": -0.766}
{"Oligonucleotide": "AAGUCCUGUGCUACACAUCGUAUGUACCGAAUCGGGUGGGAAAAAGGGAAAAAGGGAAAGUAUUAUGUUACGCCGUUCGGAUCUGCACUU", "log2 enrichment": 0.607}
{"Oligonucleotide": "UCCUGUGCUACACAUCGUAUGUACCGAAUCGGGGAAAGGGGUUUUUUUGGGGUUUGGGGAAAGUAUUAUGUUACGCCGUUCGGAUCUGCA", "log2 enrichment": 0.834}
{"Oligonucleotide": "CUCAAGUCCUGUGCUACACAUCGUAUGUACCGAAUCGGCCGGGGCCGGGCCGGGAAAGUAUUAUGUUACGCCGUUCGGAUCUGCACUUCC", "log2 enrichment": -0.68}
{"Oligonucleotide": "UGGGAGGUGGAUUUUGUUUAUUUUUUUAGCUCAUUUCCAGGGGUGGGAAUUUUUUUUUAAUAUGUGUCAUGAAUAAAGUUGUUUUUCAAA", "log2 enrichment": 2.8}
{"Oligonucleotide": "UCAAGUCCUGUGCUACACAUCGUAUGUACCGAAUCGGGAAAGGGUUUGGGAGGGAAAGUAUUAUGUUACGCCGUUCGGAUCUGCACUUCC", "log2 enrichment": 0.845}
{"Oligonucleotide": "UCAAGUCCUGUGCUACACAUCGUAUGUACCGAAUCGGGAGGGUGGGAAAAAGGGAAAGUAUUAUGUUACGCCGUUCGGAUCUGCACUUCC", "log2 enrichment": 0.584}
{"data": "Block 3", "target": "RING finger protein unkempt homolog, zinc fingers 1-6, SBP tag (UNK, Homo sapiens, UniProt Q9C0B0, residues 30-357)", "technique": "RNA Bind-n-Seq", "form": "RNA", "matrix": "in vitro", "concentration": "100 nM", "notes": "RNA with constant flanks, vertebrate orthologous sites, ends assumed", "relative to": "input RNA pool", "direction": "higher = stronger binding", "constant ends, left off below": "GGGAGUUCUACAGUCCGACGAUC … CAACAGAGGAUUGAGCAUCA", "chain of UniProt Q9C0B0 (30-357, looked up)": "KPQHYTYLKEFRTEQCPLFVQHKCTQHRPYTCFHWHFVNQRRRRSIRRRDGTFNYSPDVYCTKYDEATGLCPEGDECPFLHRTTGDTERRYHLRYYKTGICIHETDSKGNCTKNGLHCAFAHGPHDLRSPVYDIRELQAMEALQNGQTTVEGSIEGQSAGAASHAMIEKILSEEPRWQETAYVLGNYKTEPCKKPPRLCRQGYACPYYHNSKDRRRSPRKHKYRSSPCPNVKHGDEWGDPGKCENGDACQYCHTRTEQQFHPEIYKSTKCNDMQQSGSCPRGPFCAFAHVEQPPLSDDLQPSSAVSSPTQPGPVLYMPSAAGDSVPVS"}
{"Oligonucleotide": "CUCCCUCCCAGGACUGAGCAGUGGGGCCUGGGCCCACUGGCCACAUCAGCCAGGCCAUUUUAGCUCUUUUCUUUUUUUUAAACAGUGCCCUUGUUAUCCUGUAUAUAAGUGGAGAUUUGG", "bound/input enrichment": "1.42 ratio"}
{"Oligonucleotide": "GCCUGUGCUUAUACUCUUCUGAGGAAGAGACAAAUUGGGGAAAACUGUCUCCUUUUUAUAGUUUCCUUCUAAAUUAUGACCAGAAGAUAUUUUGCUAUUUCUUUCUUUAUAUAUGGACUU", "bound/input enrichment": "0.483 ratio"}
{"Oligonucleotide": "AGCAGGCCAGGGAUUGAGGCCCACCUUCCCACAUAUACCAAGUAGAUAUGGAAUCAACAGGAUGGGGCAGCCAAGACCCUGACAGACUCUAACUUAUUGUGAUGGGGAAUAGCGACUUCU", "bound/input enrichment": "0.531 ratio"}
{"Oligonucleotide": "AGAAAAUUUUAAUCAGGAAUCAGAAGGUAGAAGCACAGGACCGUGGUUAUCUUCCUCACUUAGAAAUAGAUGCACACCUUUGUUCUCUAGAAGGAGGCGAGAGGGAAGAGAUGAAUCUUC", "bound/input enrichment": "1.11 ratio"}
{"Oligonucleotide": "ACCUUUUGUAGGCCAAAUACCCUCCUUCUACUGCUUCUGCCAACUGGAAGCACAGAAAACUAGAAUUUCAUUUUAUUUUGUUUAAAAAAAAAAAAAAAUUUGAUUUCUUGUAACAUCCAC", "bound/input enrichment": "0.675 ratio"}
{"Oligonucleotide": "AUGUGCCUGUGCAGUCAUUAGAGUGGGUUCUUCCUUCUCCUGUGAGGAAAAAAGCCCAAAGAGAUUUCUUACACAUCUGACUAUACUGUUGUUUUUAUUCUUUUAUUGUUUUUACAUAUG", "bound/input enrichment": "0.813 ratio"}
{"Oligonucleotide": "CCCUUUCUCCCCAGCUGAGGGAGUUCAGGGAGCCCAGGAAGACCCUCAACUGUUCCAAUCCAGUAUUUUUUUCUUUUUUAAAAUUACUGUAUUUAUUAUGACGAUGGUGACUCCCCAGUG", "bound/input enrichment": "0.433 ratio"}
{"Oligonucleotide": "UUUGCUUUCUUGUCUUUUGACCUCAUUUCUUUAUUUUUAUCUUCAUUUUAUUUUCUUUUUCUAGUGUUGUUACCCACGCCAUUUUAUGUCUCCUUCACUGAAGGGCUAGAGUUUUAACUU", "bound/input enrichment": "7.77 ratio"}
{"Oligonucleotide": "GCCUCUAGCAGGCAGUUUCAGGGAGAGAUAGGCUUCAGGGAAUAUAAAUUUAUUUAAUAUGAGUGUUCUUGAAGUAUAAACUUGAUAUAAUUGUUUUGGGAGGGGGACAGUGAUGAUGAC", "bound/input enrichment": "1.03 ratio"}
{"Oligonucleotide": "CCUACAAUAAUGAAAACCUACAGGAAUUUUUUUUUUCCCCAUUAUCCCCUUAGGCAUAUUUAGGCUUUUCCCCAGGCAGAUUAUUCUGAGUGUGCGAGUAUGUGUGCACAUGUUACAGAG", "bound/input enrichment": "0.876 ratio"}
{"Oligonucleotide": "UUGUGAGGAAGGGGAAAGACUAGAUUCUUCUCUUCCCAAGUAAAACUGAAAUAAUCUGCUUUUAUUUCUGUCUUGGAAAACAAAGAUGGCCUUUUCUCUUAAUUGUGUAACAAUACCAUC", "bound/input enrichment": "0.313 ratio"}
{"data": "Single results of other studies"}
{"Substance": "PhoQ, residues 284 288 289 292 302 303 SNSSNI", "target": "PhoP, residues 12 14 15 18 19 SYFRT (Escherichia coli, UniProt P23836)", "assay": "Sort-seq, item: YFP reporter", "system": "E. coli", "setting": "PhoQ-PhoP variant library, added: 10 µM Mg2+", "how to read": "relative to: high Mg2+ state, higher = stronger signaling", "endpoint": "fold induction", "value": 1.04}
